Measurements collected from several papers.
Protocols differ between the studies behind these lines. ± gives the spread as reported.
SLC6A3 D313N: Sodium-dependent dopamine transporter (SLC6A3, Homo sapiens, UniProt Q01959, D313N)
Chain of UniProt Q01959 (whole entry, unmodified, looked up): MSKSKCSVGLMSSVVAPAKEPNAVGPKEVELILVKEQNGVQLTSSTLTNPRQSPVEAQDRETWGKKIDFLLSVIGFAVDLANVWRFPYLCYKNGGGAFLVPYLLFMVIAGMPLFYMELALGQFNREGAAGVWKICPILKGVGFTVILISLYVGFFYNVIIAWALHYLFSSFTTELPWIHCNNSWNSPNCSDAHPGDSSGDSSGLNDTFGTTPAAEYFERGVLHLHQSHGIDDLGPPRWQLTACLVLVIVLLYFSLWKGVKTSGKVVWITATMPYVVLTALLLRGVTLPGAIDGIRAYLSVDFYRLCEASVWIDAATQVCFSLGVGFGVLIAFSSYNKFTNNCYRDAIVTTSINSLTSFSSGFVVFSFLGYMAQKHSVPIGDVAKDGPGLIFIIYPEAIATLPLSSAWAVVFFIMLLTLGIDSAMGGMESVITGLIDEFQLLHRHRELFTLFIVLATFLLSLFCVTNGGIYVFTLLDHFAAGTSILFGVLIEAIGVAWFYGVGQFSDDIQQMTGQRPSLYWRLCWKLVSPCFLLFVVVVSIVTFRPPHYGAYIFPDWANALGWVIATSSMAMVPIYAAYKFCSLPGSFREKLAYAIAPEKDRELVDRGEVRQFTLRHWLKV
DNA polymerase III PolC-type: DNA polymerase III PolC-type (Bacillus subtilis, UniProt P13267)
Chain of UniProt P13267 (whole entry, looked up): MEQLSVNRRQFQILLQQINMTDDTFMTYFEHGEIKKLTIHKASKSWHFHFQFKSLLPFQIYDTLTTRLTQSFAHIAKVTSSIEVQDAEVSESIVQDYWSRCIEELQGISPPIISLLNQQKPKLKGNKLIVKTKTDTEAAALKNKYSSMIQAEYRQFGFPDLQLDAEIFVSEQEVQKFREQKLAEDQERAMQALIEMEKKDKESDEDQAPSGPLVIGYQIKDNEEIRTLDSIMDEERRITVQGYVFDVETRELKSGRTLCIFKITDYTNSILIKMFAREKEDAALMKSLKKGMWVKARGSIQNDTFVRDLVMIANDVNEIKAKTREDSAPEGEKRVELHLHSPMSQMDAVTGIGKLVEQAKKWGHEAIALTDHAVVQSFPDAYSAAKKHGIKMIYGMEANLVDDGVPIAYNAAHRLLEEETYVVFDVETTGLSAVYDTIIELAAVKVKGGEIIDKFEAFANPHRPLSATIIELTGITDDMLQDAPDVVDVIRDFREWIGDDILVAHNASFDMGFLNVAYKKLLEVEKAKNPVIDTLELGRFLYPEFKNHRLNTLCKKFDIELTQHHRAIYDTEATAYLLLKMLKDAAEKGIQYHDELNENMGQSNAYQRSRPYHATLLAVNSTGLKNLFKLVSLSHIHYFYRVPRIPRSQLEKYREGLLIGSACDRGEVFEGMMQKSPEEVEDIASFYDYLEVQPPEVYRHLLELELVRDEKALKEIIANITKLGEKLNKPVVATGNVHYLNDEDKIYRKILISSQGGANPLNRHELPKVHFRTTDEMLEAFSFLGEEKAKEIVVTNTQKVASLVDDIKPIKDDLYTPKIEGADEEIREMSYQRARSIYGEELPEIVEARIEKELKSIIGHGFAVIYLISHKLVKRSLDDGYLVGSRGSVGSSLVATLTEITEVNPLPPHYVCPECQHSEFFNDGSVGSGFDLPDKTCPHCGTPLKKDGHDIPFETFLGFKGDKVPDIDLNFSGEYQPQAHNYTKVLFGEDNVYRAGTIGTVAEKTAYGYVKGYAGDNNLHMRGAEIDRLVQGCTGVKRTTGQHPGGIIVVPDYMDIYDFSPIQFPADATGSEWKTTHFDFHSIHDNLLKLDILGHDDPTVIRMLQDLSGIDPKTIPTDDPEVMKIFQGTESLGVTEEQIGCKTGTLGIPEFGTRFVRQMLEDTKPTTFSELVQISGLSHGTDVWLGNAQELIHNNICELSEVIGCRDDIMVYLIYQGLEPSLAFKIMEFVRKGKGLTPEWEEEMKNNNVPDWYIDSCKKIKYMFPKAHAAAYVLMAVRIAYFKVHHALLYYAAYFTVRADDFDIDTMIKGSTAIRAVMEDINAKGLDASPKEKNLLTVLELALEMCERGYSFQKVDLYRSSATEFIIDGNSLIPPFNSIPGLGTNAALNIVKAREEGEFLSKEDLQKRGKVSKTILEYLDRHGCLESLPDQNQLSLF
UDP-3-O-acyl-N-acetylglucosamine deacetylase C40S: UDP-3-O-acyl-N-acetylglucosamine deacetylase (Pseudomonas aeruginosa, UniProt P47205, C40S)
Chain of UniProt P09546 (whole entry, looked up): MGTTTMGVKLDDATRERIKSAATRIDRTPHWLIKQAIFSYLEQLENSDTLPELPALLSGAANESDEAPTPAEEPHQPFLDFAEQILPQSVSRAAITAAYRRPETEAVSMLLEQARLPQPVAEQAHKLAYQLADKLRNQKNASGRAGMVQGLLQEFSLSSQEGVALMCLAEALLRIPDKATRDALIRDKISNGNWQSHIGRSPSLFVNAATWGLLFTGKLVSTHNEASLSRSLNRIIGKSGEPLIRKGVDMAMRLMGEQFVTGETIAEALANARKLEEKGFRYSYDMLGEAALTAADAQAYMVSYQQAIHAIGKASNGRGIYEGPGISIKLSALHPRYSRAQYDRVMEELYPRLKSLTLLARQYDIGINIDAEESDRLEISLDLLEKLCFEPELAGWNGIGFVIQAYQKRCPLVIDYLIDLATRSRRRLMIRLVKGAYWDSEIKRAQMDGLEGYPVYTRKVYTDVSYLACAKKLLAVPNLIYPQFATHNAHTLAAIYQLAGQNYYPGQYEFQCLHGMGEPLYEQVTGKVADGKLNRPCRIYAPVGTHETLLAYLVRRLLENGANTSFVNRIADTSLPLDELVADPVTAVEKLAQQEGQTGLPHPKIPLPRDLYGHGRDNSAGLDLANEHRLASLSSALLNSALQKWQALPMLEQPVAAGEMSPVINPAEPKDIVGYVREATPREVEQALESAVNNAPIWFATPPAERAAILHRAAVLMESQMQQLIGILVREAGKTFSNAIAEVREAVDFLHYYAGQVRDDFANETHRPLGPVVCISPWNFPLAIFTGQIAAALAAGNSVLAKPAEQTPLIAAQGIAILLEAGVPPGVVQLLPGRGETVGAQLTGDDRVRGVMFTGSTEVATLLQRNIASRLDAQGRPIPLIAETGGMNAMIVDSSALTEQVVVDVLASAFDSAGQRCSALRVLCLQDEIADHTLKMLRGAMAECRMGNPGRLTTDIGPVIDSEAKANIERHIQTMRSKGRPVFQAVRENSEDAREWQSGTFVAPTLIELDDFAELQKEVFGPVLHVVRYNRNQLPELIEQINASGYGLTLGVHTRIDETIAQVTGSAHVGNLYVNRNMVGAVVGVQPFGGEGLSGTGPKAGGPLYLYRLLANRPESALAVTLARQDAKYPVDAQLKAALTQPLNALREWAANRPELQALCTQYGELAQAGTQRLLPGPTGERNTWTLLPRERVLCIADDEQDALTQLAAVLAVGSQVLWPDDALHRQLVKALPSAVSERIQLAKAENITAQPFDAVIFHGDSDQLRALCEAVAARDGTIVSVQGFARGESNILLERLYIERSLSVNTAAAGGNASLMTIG
Chain of UniProt P05183 (whole entry, looked up): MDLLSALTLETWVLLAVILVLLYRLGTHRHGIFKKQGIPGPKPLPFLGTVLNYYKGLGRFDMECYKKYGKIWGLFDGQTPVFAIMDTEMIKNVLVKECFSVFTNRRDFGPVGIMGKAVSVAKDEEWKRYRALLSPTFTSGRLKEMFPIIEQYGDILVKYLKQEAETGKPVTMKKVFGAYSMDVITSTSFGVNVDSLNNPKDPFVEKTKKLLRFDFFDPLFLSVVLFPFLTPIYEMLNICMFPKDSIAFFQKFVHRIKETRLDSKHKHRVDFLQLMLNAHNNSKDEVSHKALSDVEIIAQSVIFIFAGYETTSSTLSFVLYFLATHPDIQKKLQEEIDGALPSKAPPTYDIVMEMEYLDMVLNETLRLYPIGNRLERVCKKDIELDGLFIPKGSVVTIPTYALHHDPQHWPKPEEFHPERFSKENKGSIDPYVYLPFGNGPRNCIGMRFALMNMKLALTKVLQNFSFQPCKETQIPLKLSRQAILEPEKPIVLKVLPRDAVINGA
Chain of UniProt P21397 (whole entry, looked up): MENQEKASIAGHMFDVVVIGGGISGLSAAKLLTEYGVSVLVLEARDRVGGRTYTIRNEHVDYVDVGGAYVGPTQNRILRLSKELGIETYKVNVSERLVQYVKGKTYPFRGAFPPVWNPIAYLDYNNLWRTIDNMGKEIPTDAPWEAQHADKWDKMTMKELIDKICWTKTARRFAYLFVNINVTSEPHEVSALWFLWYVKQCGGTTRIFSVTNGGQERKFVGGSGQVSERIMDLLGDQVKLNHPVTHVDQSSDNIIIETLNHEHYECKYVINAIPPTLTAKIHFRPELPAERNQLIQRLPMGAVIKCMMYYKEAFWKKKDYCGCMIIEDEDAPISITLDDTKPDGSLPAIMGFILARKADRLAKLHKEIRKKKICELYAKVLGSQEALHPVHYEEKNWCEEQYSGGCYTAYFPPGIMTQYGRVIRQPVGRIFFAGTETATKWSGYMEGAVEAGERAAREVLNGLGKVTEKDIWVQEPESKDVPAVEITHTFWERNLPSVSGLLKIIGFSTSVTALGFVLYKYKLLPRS
Chain of UniProt P05182 (whole entry, looked up): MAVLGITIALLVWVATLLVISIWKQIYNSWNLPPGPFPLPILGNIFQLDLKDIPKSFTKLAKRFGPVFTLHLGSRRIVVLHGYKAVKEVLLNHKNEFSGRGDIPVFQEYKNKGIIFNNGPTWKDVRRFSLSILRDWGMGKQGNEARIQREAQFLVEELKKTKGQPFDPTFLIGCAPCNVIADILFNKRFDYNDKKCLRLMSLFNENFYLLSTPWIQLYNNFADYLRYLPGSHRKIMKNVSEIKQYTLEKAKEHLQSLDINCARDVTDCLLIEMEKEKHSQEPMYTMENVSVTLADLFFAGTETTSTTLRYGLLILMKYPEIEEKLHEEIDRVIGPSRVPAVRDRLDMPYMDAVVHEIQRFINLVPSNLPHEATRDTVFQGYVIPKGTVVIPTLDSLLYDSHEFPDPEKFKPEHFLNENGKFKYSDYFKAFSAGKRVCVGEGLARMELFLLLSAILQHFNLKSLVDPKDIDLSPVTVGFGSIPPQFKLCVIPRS

O=C(O)CNCP(=O)(O)O
Ki (EPSP synthase (Zea mays, UniProt A0A1D6NVZ6, P168S/T164I)): 739 ± 52 µM

O=C(O)c1cccc(Cc2c[nH]c3ccc(-c4ccc5cc[nH]c5c4)cc23)c1
Ki (Envelope glycoprotein gp160, gp41 hydrophobic pocket (env, Human immunodeficiency virus type 1 group M subtype B, UniProt P04578, K574X)): 3.1 µM

c1ccc(C(OCCN2CCNCC2)c2ccccc2)cc1
Ki (SLC6A3 D313N; binding; HEK293 expressing DAT D313N; 0 mM Na+ with NMDG-Cl buffer, with: [3H]CFT): 0.635 ± 0.0418 µM

COc1[nH]c(=O)c(C(=O)[C@@H](C)C[C@H](C)[C@@H](Cl)CCl)c(O)c1OC
Ki (putA (Escherichia coli, UniProt P09546); dead-end competitive inhibitor; pH 7.4, 20 °C, with: 100 mM proline, CoQ1 substrate): 97 ± 8 µM

COc1ccc2c(c[n+](C)c3c4cc5c(cc4ccc23)OCO5)c1OC
Ki (Cytochrome P450 3A2 (Cyp3a2, Rattus norvegicus, UniProt P05183); Sprague-Dawley rat, male; 30 (unit not given), pH 7.4): 17.4 µM

CC(C)[C@H](N)C(=O)OCCCCCn1cnc2nc(NCc3ccc(Cl)c(Cl)c3)[nH]c(=O)c21
Ki (DNA polymerase III PolC-type; inhibitor): 0.48 µM

C=CC(O)CO (stereo not shown)
Ki (Cytochrome P450 2E1 (Cyp2e1, Rattus norvegicus, UniProt P05182); 4-nitrophenol oxidation, inhibitor; F344 rat liver microsomes; 30 min, pH 7.4, with: 4-nitrophenol): 640 µM

[O]=[V]([OH])([OH])[OH]
Ki (Alkaline phosphatase PafA (pafA, Elizabethkingia meningoseptica, UniProt Q9KJX5); pH 8): 0.73 µM

CN(C)C(=O)C(CCN1CCC(O)(c2ccc(Cl)cc2)CC1)(c1ccccc1)c1ccccc1
Ki (Alpha-1-acid glycoprotein 2 (Homo sapiens, UniProt P19652); competitive inhibitor, ultrafiltration; 15 min, 37 °C, with: [3H]S-disopyramide): 11.9 µM

C/C(=C\C(=O)OCCCCCCCC(=O)Nc1c2sscc-2[nH]c1=O)[C@@H](O)[C@@H]1OC[C@H](C/C=C/[C@@H](C)[C@H](C)O)[C@@H](O)[C@H]1O
Ki (Isoleucine--tRNA ligase (ileS, Staphylococcus aureus, UniProt Q5HGN8); adenylation activity, competitive inhibitor, ATP-PPi exchange; with: L-isoleucine): 0.00037 ± 7e-05 µM

CN1CCN(CCOC(c2ccccc2)c2ccccc2)CC1
Ki (SLC6A3 (Homo sapiens, UniProt Q01959); binding, [3H]CFT binding inhibition; HEK293; 15 min, 20 °C, with: 130 mM Na+): 0.317 ± 0.0432 µM

C=C(C)[C@H](CC=C(C)C)Cc1c(O)cc(OC)c2c1O[C@H](c1ccc(O)cc1O)CC2=O
Ki (MAOA (Homo sapiens, UniProt P21397); enzyme activity, inhibitor, MAO-Glo): 65.1 ± 3.53 µM

C[C@@H](O)[C@H](NC(=O)c1ccc(-c2ccc(Br)cc2)cc1)C(=O)NO
Ki (UDP-3-O-acyl-N-acetylglucosamine deacetylase C40S; enzyme activity, inhibitor): 0.000741 µM

CN1[C@@H]2CC[C@H]1C[C@@H](OC(=O)c1ccccc1)C2
Ki (SLC6A3 D313N; binding; HEK293 expressing DAT D313N; 0 mM Na+ with NMDG-Cl buffer, with: [3H]CFT): 10.19 ± 0.0534 µM

CCc1cc(Nc2cc(=O)n(CCCCO)c(=O)[nH]2)ccc1C
Ki (DNA polymerase III PolC-type; enzyme activity, inhibitor; truncated polymerase, no dGTP, 4% DMSO): 0.13 µM

NC[C@H](NC(=O)c1ccc(C#CC#Cc2ccccc2)cc1)C(=O)NO
Ki (UDP-3-O-acyl-N-acetylglucosamine deacetylase C40S; enzyme activity, inhibitor): 0.00987 µM

A few entries again:
CN(C)C(=O)C(CCN1CCC(O)(c2ccc(Cl)cc2)CC1)(c1ccccc1)c1ccccc1
Ki (Alpha-1-acid glycoprotein 2 (Homo sapiens, UniProt P19652); competitive inhibitor, ultrafiltration; 15 min, 37 °C, with: [3H]S-disopyramide): 11.9 µM
